Published values from different studies.
Compare with care: the assays were run in different laboratories.
Organism: Candida albicans

| Structure (SMILES) | assay | test system | setting | scale | endpoint | value |
| --- | --- | --- | --- | --- | --- | --- |
| CC(C)[C@H]1NC(=O)[C@H](Cc2ccccc2)NC(=O)[C@@H](C(C)C)NC(=O)[C@@H](C)NC(=O)[C@H](CO)NC(=O)[C@@H](Cc2c(-c3ccc(-c4ccccc4)c(F)c3)[nH]c3ccccc23)NC(=O)[C@@H](CO)NC1=O | broth dilution | – | – | – | MIC90 | > 50 µM |
| C=C(P(=O)(O)O)P(=O)(O)O | microbial growth, broth dilution | SC5314 | 24 h | – | MIC | > 128 µg/mL |
| CCCCCCCCCCCC(=O)NCCCC[C@H](NC(=O)CCCCCCCCCCC)C(=O)N[C@@H](CCCCNC(=O)CCCCCCCCCCC)C(=O)NCC(=O)NCC(=O)NCC(=O)N[C@@H](CS)C(=O)N[C@@H](CCCNC(=N)N)C(=O)N[C@@H](CCCCN)C(=O)N1CCC[C@H]1C(=O)N[C@@H](CS)C(=O)N[C@@H](CCCNC(=N)N)C(=O)N[C@@H](CCCCN)C(=O)N1CCC[C@H]1C(N)=O | broth microdilution | SP 3876, RPMI-1640 | 48 h, 30 °C | – | MIC | > 128 µM |
| COc1ccc(-c2[nH]c3ccccc3c2C[C@H]2NC(=O)[C@@H](CO)NC(=O)[C@@H](C(C)C)NC(=O)[C@H](Cc3ccccc3)NC(=O)[C@@H](C(C)C)NC(=O)[C@@H](C)NC(=O)[C@H](CO)NC2=O)c(OC)c1 | broth dilution | – | – | – | MIC90 | > 50 µM |
| N=C(N)NCCC[C@H](NC(=O)[C@H](Cc1c[nH]c2ccccc12)NC(=O)[C@H](CCCNC(=N)N)NC(=O)[C@H](CCCNC(=N)N)NC(=O)[C@@H]1CCCN1C(=O)[C@H](CCCCN)NC(=O)[C@@H](N)CCCNC(=N)N)C(=O)N[C@@H](Cc1c[nH]c2ccccc12)C(=O)N[C@@H](Cc1c[nH]c2ccccc12)C(=O)N1CCC[C@H]1C(=O)N[C@@H](CCCCN)C(=O)N[C@@H](CCCNC(=N)N)C(=O)N1CCC[C@H]1C(=O)O | growth | ATCC 10231, potato dextrose broth | 128 µM, 30 °C | – | inhibition | 1 fraction (0-1) |
| CC(C)[C@H]1NC(=O)[C@H](Cc2ccccc2)NC(=O)[C@@H](C(C)C)NC(=O)[C@@H](C)NC(=O)[C@H](CO)NC(=O)[C@@H](Cc2c(-c3ccc(-c4ccccc4)cc3)[nH]c3ccccc23)NC(=O)[C@@H](CO)NC1=O | broth dilution | – | – | – | MIC90 | > 50 µM |
| CCCCCC(=O)NCCCC[C@H](NC(=O)CCCCC)C(=O)N[C@@H](CCCCNC(=O)CCCCC)C(=O)NCC(=O)NCC(=O)NCC(=O)N[C@@H](CS)C(=O)N[C@@H](CCCNC(=N)N)C(=O)N[C@@H](CCCCN)C(=O)N1CCC[C@H]1C(=O)N[C@@H](CS)C(=O)N[C@@H](CCCNC(=N)N)C(=O)N[C@@H](CCCCN)C(=O)N1CCC[C@H]1C(N)=O | broth microdilution | CGMCC 2.209, RPMI-1640 | 48 h, 30 °C | – | MIC | 32 µM |
| CCC(=O)c1ccc(OCC(O)CN2CCN(C(c3ccccc3)c3ccccc3)CC2)cc1 (stereo not shown) | – | DSY654 (Cdr efflux pump knockout) | 24 h, 35 °C | – | MIC | 8 µg/mL |
| CC(C)C[C@H](NC(=O)[C@@H](N)CCCNC(=N)N)C(=O)N[C@@H](CCCNC(=N)N)C(=O)N[C@@H](Cc1c[nH]c2ccccc12)C(=O)N1CCC[C@H]1C(=O)N[C@@H](CCCNC(=N)N)C(=O)N1CCC[C@H]1C(=O)N[C@@H](CCCNC(=N)N)C(=O)N[C@@H](Cc1c[nH]c2ccccc12)C(=O)N[C@@H](CCCNC(=N)N)C(=O)N[C@@H](CCCCN)C(=O)N1CCC[C@H]1C(=O)N1CCC[C@H]1C(=O)O | growth | ATCC 10231, potato dextrose broth | 128 µM, 30 °C | – | inhibition | 1 fraction (0-1) |
| CCCCCCCCCCCC(=O)C(C)C(=O)N1CCC[C@H]1C(=O)NC(C)(C)C(=O)NC(C)(C)C(=O)NC(C)(C)C(=O)N[C@](C)(CC)C(=O)NCCC(=O)N[C@@H](C)C(=O)N[C@](C)(CC)C(=O)N[C@@H](C)C(=O)N[C@@H](CC(C)C)C(=O)N[C@](C)(CC)C(=O)NCCC(=O)N[C@@H](C)C(=O)N[C@](C)(CC)C(=O)NCCC(=O)N[C@@H](C)C(=O)NC(C)(C)C(=O)NC(C)(C)C(=O)NC(C)(C)C(=O)N[C@@H](C)C(=O)N[C@@H](CC(=O)O)C(=O)O (stereo partly shown) | calcofluor white microscopy | ATCC 90028 | half MIC, 4 h, 30 °C, YPD medium | reference: DMSO vehicle, higher = more chitin | chitin level (calcofluor fluorescence) | 0.0333 a.u. |

A few entries again:
| Structure (SMILES) | assay | test system | setting | scale | endpoint | value |
| --- | --- | --- | --- | --- | --- | --- |
| CC(C)[C@H]1NC(=O)[C@H](Cc2ccccc2)NC(=O)[C@@H](C(C)C)NC(=O)[C@@H](C)NC(=O)[C@H](CO)NC(=O)[C@@H](Cc2c(-c3ccc(-c4ccccc4)c(F)c3)[nH]c3ccccc23)NC(=O)[C@@H](CO)NC1=O | broth dilution | – | – | – | MIC90 | > 50 µM |
